Results from different studies.
Every numbered part comes from another study and shows a few of its results, in no order. Changes are numbered by the printed parent chain.

Series 1
Target: ABI1, truncated, D143A, DHFR fusion (Arabidopsis thaliana)
Method: DHFR PCA, deep sequencing
Matrix: yeast
Setting: methotrexate growth selection, single substitutions
Together with: (+)-ABA 2500 µM
Relative to: wild-type fitted maximum
Direction: higher = stronger binding
Parent: PYL1, truncated, DHFR fusion (Arabidopsis thaliana); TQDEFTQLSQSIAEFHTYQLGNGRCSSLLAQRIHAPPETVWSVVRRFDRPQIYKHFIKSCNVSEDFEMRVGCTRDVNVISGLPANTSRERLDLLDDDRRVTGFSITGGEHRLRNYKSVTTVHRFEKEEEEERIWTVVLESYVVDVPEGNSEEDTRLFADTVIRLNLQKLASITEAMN
For `L91N`, “relative binding score” read 57.8%.
For `S26I`, “relative binding score” read 87.6%.
`T39D` — result for “relative binding score”: 89.3%.
For `Y53R`, “relative binding score” read 85.3%.
`F124D`: “relative binding score” 108%.
Under “relative binding score”, `K58E` is recorded as 93.7%.
For `M68V`, “relative binding score” read 91.6%.
`P50M` — result for “relative binding score”: 16.4%.
Under “relative binding score”, `C60A` is recorded as 91.4%.
For `G71M`, “relative binding score” read 74.8%.
`R24I`: “relative binding score” 95.6%.
`N61P` — result for “relative binding score”: 83.5%.
For `G108E`, “relative binding score” read 74.3%.
Under “relative binding score”, `V145N` is recorded as 83%.
`A170E` — result for “relative binding score”: 86.3%.
`E127D`: “relative binding score” 102%.
Under “relative binding score”, `S171M` is recorded as 89.7%.

Series 2
Target: Fragile X messenger ribonucleoprotein 1, C-terminal low-complexity region (Fmr1, Mus musculus, UniProt P35922)
Method: RNA Bind-n-Seq
Form: RNA
Matrix: in vitro
Concentration: 200 nM
Setting: whole 134-nt RNA, ends assumed
Together with: 150 mM LiCl
Relative to: input library
Direction: higher = stronger binding
Each molecule: 7-deaza-guanosine replaces G
For `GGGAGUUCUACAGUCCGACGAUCAAGUCCUGUGCUACACAUCGUAUGUACCGAAUCGGGUUUUUGGGAAAGGGAAAGGGAAAGUAUUAUGUUACGCCGUUCGGAUCUGCACUUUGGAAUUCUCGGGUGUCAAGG`, the log2 enrichment was -0.966.
For `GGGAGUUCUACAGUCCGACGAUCUGGGAGGUGGAUUUUGUUUAUUUUUUUAGCUCAUUUCCAGGGGUGGGAAUUUUUUUUUAAUAUGUGACAUGAAUAAAGUUGUUUUUGAAAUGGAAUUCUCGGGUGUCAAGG`, the log2 enrichment was -0.246.
`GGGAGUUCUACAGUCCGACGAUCAAAGCAAGAGAUGGCUAGUGCUUCAUCCAGCCAAAGAGGUAUGCUUGUUGCUUAAUUAAACCUUAAAGGUAACUUUGAGUUACUCCAGUAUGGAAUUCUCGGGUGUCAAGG` has a log2 enrichment of -2.14.
`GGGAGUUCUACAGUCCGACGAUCCUGUGCUACACAUCGUAUGUACCGAAUCGGGGAAAAAAAGGGGAAAAAAAGGGAAAAAAAGGAAAGUAUUAUGUUACGCCGUUCGGAUCUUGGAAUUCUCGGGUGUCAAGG` has a log2 enrichment of 0.341.
`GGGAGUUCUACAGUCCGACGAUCAGUCCUGUGCUACACAUCGUAUGUACCGAAUCGGGGAAAGGGGUUUGGGGUUUGGGGAAAGUAUUAUGUUACGCCGUUCGGAUCUGCACUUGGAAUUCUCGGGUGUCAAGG` gave a log2 enrichment of -1.27.
For `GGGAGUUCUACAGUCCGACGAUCGCAGGAAGUAAAAACAAAUGGAAAUGCUUCGGAUAGUGGCAGGCGUGGGGGUUGCUAAGGAAAGGGUGGGAUGGGAGUGGGUAAAGAGUUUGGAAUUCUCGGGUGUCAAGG`, the log2 enrichment was 1.24.
The log2 enrichment of `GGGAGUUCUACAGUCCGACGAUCUGUGCUACACAUCGUAUGUACCGAAUCGGGGUUUUUUUGGUUUUUUUGGGGUUUUUUUGGGGAAAGUAUUAUGUUACGCCGUUCGGAUCUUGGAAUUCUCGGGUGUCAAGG` is reported as 1.33.
With `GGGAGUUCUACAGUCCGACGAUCUUAUGGAGUUUGGCCCUGAGGACAUGCUGCUGGGCAUGGAUGAGGCUGAAGAUGAUGAGGACCUGGAGGCUGAGCUGCUGGCUCUCACAGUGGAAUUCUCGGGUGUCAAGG` the log2 enrichment was -1.95.
The log2 enrichment of `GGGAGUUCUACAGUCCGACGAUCCUGUGCUACACAUCGUAUGUACCGAAUCGGGUUUUUUUGGGUUUUUUUGGGUUUUUUUGGGAAAGUAUUAUGUUACGCCGUUCGGAUCUGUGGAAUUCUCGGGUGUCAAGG` is reported as 0.683.
`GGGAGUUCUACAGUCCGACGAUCCUCAAGUCCUGUGCUACACAUCGUAUGUACCGAAUCGGAGGUUUGGUUUUUGGAAAGUAUUAUGUUACGCCGUUCGGAUCUGCACUUCCAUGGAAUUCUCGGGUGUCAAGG` has a log2 enrichment of -0.48.
`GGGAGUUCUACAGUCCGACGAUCUCCUGUGCUACACAUCGUAUGUACCGAAUCGGGGUUUUUUGGUUUUUUGGGUUUUUUGGAAAGUAUUAUGUUACGCCGUUCGGAUCUGCAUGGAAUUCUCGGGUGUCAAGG` has a log2 enrichment of -0.561.

Series 3
Target: CREB3L3, bZIP domain (human)
Method: DHFR protein complementation
Matrix: yeast
Setting: single substitutions, most at no-binding floor
Relative to: wild-type JUN-FOS pair
Direction: higher = stronger binding
Parent: JUN, bZIP domain (human); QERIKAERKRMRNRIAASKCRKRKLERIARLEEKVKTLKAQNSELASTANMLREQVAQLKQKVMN; partner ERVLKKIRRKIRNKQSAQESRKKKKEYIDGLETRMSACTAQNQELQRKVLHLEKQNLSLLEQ
`S47I` gave a binding fitness of -1.5 natural log.
For `L59T`, the binding fitness was -1.01 natural log.
`L31Q` gave a binding fitness of -1.53 natural log.
For `E44S`, the binding fitness was -1.51 natural log.
For `V56P`, the binding fitness was -1.52 natural log.
The binding fitness of `V35T` is reported as -1.48 natural log.
The binding fitness of `S47K` is reported as -1.37 natural log.
The binding fitness of `R30S` is reported as -1.4 natural log.
The binding fitness of `V35W` is reported as -1.38 natural log.
For `I28E`, the binding fitness was -1.34 natural log.
For `A46G`, the binding fitness was -1.49 natural log.
The binding fitness of `L45P` is reported as -1.43 natural log.
`E32Q` gave a binding fitness of -1.46 natural log.
With `K36R` the binding fitness was -1.33 natural log.

Series 4
Target: CCND2, cyclin fold, Cln2 fusion (human)
Method: yeast growth competition, sequencing
Matrix: yeast
Setting: weak parent motif
Relative to: not given
Direction: higher = stronger binding
Parent: CDKN1B docking peptide (human); PSACRNLFGPVDH
For `ASACRNLFGPVDH [P1A]`, “normalised enrichment score” read 0.199.
Under “normalised enrichment score”, `PSACRNLFGPVAH [D12A]` is recorded as 0.625.
Under “normalised enrichment score”, `PSACRNLFGPVDN [H13N]` is recorded as -0.0579.
`PSACRNLFGPHDH [V11H]` — result for “normalised enrichment score”: 0.46.
For `PSACRNLFGPVYH [D12Y]`, “normalised enrichment score” read 0.226.
`PSACCNLFGPVDH [R5C]` — result for “normalised enrichment score”: -0.309.
`PSACRNLFRPVDH [G9R]`: “normalised enrichment score” -0.19.
Under “normalised enrichment score”, `PKACRNLFGPVDH [S2K]` is recorded as 0.234.
`PSACRNLFGPVPH [D12P]`: “normalised enrichment score” 0.109.
`PSACRNLWGPVDH [F8W]` — result for “normalised enrichment score”: 0.0976.
`PSACRNNFGPVDH [L7N]` — result for “normalised enrichment score”: -0.123.
Under “normalised enrichment score”, `PSACRNLFGTVDH [P10T]` is recorded as 0.121.
`PSACRELFGPVDH [N6E]`: “normalised enrichment score” 0.222.
`PSYCRNLFGPVDH [A3Y]` — result for “normalised enrichment score”: -0.0948.
`PSAKRNLFGPVDH [C4K]` — result for “normalised enrichment score”: -0.0577.
`PSACQNLFGPVDH [R5Q]` — result for “normalised enrichment score”: -0.0839.

Series 5
Target: Centromere-binding protein 1, full length, N-terminal tag (CBF1, Saccharomyces cerevisiae, UniProt P17106, residues 1-351)
Chain of UniProt P17106 (whole entry, looked up): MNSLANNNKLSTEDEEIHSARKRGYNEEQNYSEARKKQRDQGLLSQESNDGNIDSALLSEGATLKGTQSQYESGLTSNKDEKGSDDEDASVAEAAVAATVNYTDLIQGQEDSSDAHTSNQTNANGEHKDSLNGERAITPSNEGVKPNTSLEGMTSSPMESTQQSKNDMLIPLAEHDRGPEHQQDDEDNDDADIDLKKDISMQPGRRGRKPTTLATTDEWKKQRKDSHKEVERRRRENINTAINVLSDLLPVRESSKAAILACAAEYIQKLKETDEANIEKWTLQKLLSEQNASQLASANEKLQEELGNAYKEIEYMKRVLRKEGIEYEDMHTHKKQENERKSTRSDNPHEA
Method: protein-binding microarray
Form: double-stranded DNA, one strand shown
Matrix: in vitro
Concentration: 0.8 µM
Setting: whole 60-bp probe, no competitor
Direction: higher = stronger binding
`CTAATTCACAGCTTTTACGTGCTATTTTTGGTCTTCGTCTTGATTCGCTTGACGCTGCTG` has a fluorescence intensity of 482 a.u.
The fluorescence intensity of `GAATCCGCAGAACATGATGCTAAAAGCCAGCTATAGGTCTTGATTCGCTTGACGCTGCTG` is reported as 528 a.u.
`GAAGTCTCTGCCTGGAGCGTGACATTTAGGACGTAGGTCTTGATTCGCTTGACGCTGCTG` has a fluorescence intensity of 794 a.u.
The fluorescence intensity of `TGTACGAAGCTATTACGTGTGATTATAGTAGTTAGGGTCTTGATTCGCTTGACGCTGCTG` is reported as 543 a.u.
The fluorescence intensity of `GAACCTTTCTCTCACGTGTAAATATTTGTGTGTTAGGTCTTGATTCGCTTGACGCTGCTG` is reported as 3370 a.u.
With `CTAAGTGTTTCAACAAACGTGATGTTGTATATGTTCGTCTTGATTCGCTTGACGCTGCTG` the fluorescence intensity was 1140 a.u.
`CCTAACTACTATATATGCGTGCAATAGCTTCGTACAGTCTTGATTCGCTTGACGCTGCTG` gave a fluorescence intensity of 539 a.u.
With `CTAGGAACAATACCTGATGTGGCGGAGGTGTCTTTCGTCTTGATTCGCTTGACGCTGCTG` the fluorescence intensity was 500 a.u.
The fluorescence intensity of `GAATGTAAATGTAAACACGAGGCAAACTTCTCCTAGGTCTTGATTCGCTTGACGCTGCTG` is reported as 690 a.u.
`GAAGGCCATAAACGCGACGTGCTACCATTTTCGTAGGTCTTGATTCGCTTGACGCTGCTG` has a fluorescence intensity of 613 a.u.
`GAAATAGACAAAAAAAACATCATGAATAAAAAATAGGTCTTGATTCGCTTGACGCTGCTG` gave a fluorescence intensity of 547 a.u.
`GAATTAGTCATATCAAACATGACAAATATAACATAGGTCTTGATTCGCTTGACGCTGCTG` gave a fluorescence intensity of 577 a.u.
With `CTACGCCGCTATTACTACGTGCTGCTTCTTTTGTTCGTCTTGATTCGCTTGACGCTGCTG` the fluorescence intensity was 509 a.u.
`GAAAAAGTTTCAAGTCACGTTCATTTTCACACCTAGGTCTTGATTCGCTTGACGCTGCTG` gave a fluorescence intensity of 2250 a.u.
`GAAAAAATTAGTACGCACGAGCGAATTAACATTTAGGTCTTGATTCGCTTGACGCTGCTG` gave a fluorescence intensity of 766 a.u.
The fluorescence intensity of `GAAAAGCAGGGGCACCACCACCCGAAGGGACAATAGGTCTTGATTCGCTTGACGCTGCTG` is reported as 467 a.u.
`GAAAGCACGTGACCCACGCTTGGCCCGCTATGATAGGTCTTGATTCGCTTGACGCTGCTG` gave a fluorescence intensity of 24100 a.u.
The fluorescence intensity of `CTATGTAATAAAAATGACACCACGTTATCAGGGTTCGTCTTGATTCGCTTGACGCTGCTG` is reported as 927 a.u.

Single results of other studies
`PhoQ, residues 284 288 289 292 302 303 AGHLVA` has a fold induction of 2.38 (PhoP, residues 12 14 15 18 19 LHSVQ (Escherichia coli, UniProt P23836); Sort-seq, refers to: YFP reporter; E. coli; PhoQ-PhoP variant library, together with: 10 µM Mg2+; relative to: high Mg2+ state, higher = stronger signaling).

Some of these lines once more (series 1):
`F124D`: “relative binding score” 108%.
Under “relative binding score”, `K58E` is recorded as 93.7%.
For `M68V`, “relative binding score” read 91.6%.
`P50M` — result for “relative binding score”: 16.4%.
Under “relative binding score”, `C60A` is recorded as 91.4%.
For `G71M`, “relative binding score” read 74.8%.
`R24I`: “relative binding score” 95.6%.
`N61P` — result for “relative binding score”: 83.5%.
For `G108E`, “relative binding score” read 74.3%.
Under “relative binding score”, `V145N` is recorded as 83%.
`A170E` — result for “relative binding score”: 86.3%.
`E127D`: “relative binding score” 102%.
